{"data": "Measurements pooled from the literature", "cell line": "HeLa", "note": "Compare with care: the assays were run in different laboratories. Values joined by “and” are separate records of one study, mostly repeats; a detail may differ. ± gives the spread as reported."}
{"SMILES": "COc1ccc(S(=O)(=O)N(C)c2cc(OC)cc(C(=O)O)c2)cc1", "assay": "cell growth or viability, XTT", "conditions": "72 h", "measurement": "IC50", "value": "> 100 µM"}
{"SMILES": "CC(C)C[C@H](NC(=O)[C@@H](NC(=O)[C@H](Cc1ccccc1)NC(=O)c1ccc(C(C)(C)O)cc1)C1CCC1)C(=O)N[C@@H](CCCCN(C)C1CC2CCC1C2)C(=O)N[C@@H](CO)C(=O)NCCOCCOCCCCCCCl (some centres unmarked)", "assay": "cell penetration, chloroalkane penetration", "conditions": "4 h, chloroalkane-tagged compound", "measurement": "CP50", "value": "2.5 ± 0.77 µM"}
{"SMILES": "CCC(=CCc1c(O)cc2c(c1O)C(=O)CC(c1ccc(O)c(OC)c1)O2)CC (centres unmarked)", "assay": "cytotoxicity, MTT", "conditions": "48 h, with: S9 fraction", "measurement": "log IC50", "value": "1.06 log µM"}
{"SMILES": "C[N+]1=C2C=C(NCCc3c[nH]c4ccccc34)C(=O)c3[nH]cc(c32)CC1", "assay": "cell growth or viability, MTT", "conditions": "72 h", "measurement": "CC50", "value": "0.5 µM"}
{"SMILES": "CN1CCCNC(=O)c2cccc(c2)C(=O)NCCCN(C)CCCNc2cccc3c2C(=O)c2cccc(c2C3=O)NCCC1", "assay": "cell growth or viability, CCK-8", "conditions": "1.5 µM, 48 h", "measurement": "viability", "value": "23.6%"}
{"SMILES": "COC1=CC2=NCCc3c[nH]c(c32)C1=O", "assay": "cell growth or viability, MTT", "conditions": "72 h", "measurement": "CC50", "value": "10 µM"}
{"SMILES": "COc1ccc2nccc(CC[C@H]3OC[C@H](NC(=O)c4ccc5c(n4)NC(=O)CS5)CO3)c2c1", "assay": "cytotoxicity", "conditions": "24 h", "measurement": "IC50", "value": "> 128 µg/mL"}
{"SMILES": "COc1c(Br)cc(CCNC2=CC3=NCCc4c[nH]c(c43)C2=O)cc1Br", "assay": "cell growth or viability, MTT", "conditions": "72 h", "measurement": "CC50", "value": "0.6 µM"}
{"SMILES": "COc1ccc2ncc(F)c(C[C@H](O)[C@H]3OC[C@H](NCc4ccc(Cl)c(Cl)c4)CO3)c2n1", "assay": "cytotoxicity", "conditions": "24 h", "measurement": "IC50", "value": "10.7 µg/mL"}
{"SMILES": "CCC(=CCc1c(O)cc2c(c1O)C(=O)CC(c1ccc(O)cc1OC)O2)CC (centres unmarked)", "assay": "cytotoxicity, MTT", "conditions": "48 h, with: S9 fraction", "measurement": "log IC50", "value": "1.33 log µM"}
{"SMILES": "N=C(N)NCc1ccc(CNC(=O)c2cc(-c3ccccc3)n(-c3ccccc3)n2)cc1", "assay": "cell growth or viability", "measurement": "CC50", "value": "> 50 µM"}
{"SMILES": "CCCN(CCCC[C@H](NC(=O)[C@H](CCCN)NC(=O)[C@@H](NC(=O)[C@H](Cc1ccccc1)NC(=O)c1ccc(C(C)(C)C)cc1)C1CCC1)C(=O)N[C@@H](CO)C(=O)NCCOCCOCCCCCCCl)C1CC2CCC1C2 (some centres unmarked)", "assay": "cell penetration, chloroalkane penetration", "conditions": "4 h, chloroalkane-tagged compound", "measurement": "CP50", "value": "14 ± 3.8 µM"}
{"SMILES": "NC(=O)c1cccc(NC(=O)c2cc(-c3ccc(Cl)cc3)n(-c3ccccc3)n2)c1", "assay": "cell growth or viability", "measurement": "CC50", "value": "> 100 µM"}
{"SMILES": "CN(CCCC[C@H](NC(=O)[C@H](CCCN)NC(=O)[C@@H](NC(=O)[C@H](Cc1ccccc1)NC(=O)c1ccc(C(C)(C)C)cc1)C1CCC1)C(=O)N[C@@H](CO)C(=O)NCCOCCOCCCCCCCl)C1CC2CCC1C2 (some centres unmarked)", "assay": "cell penetration, chloroalkane penetration", "conditions": "4 h, chloroalkane-tagged compound", "measurement": "CP50", "value": "15 ± 1.9 µM"}
{"SMILES": "NC[C@H]1O[C@H](O[C@H]2[C@H](O)[C@@H](O[C@H]3O[C@H](Cn4cc(CNC(=S)Nc5ccc6c(c5)C(=O)OC65c6ccc(O)cc6Oc6cc(O)ccc65)nn4)[C@@H](O)[C@H](N)[C@H]3O)[C@H](N)C[C@@H]2N)[C@H](O)[C@@H](O)[C@@H]1O", "conditions": "5 µM, 24 h", "measurement": "cytotoxicity", "value": "2 ± 0.3%"}
{"SMILES": "N#Cc1cc(NC(=O)c2cc(-c3ccccc3)n(-c3ccccc3)n2)ccc1N1CCCC1", "assay": "cell growth or viability", "measurement": "CC50", "value": "> 50 µM"}
{"SMILES": "S=c1n(-c2ccccc2)c2c3ccccc3nc3[n+]2[n]1[Ir-3]12([S]3)([c]3ccc4ccccc4c3-c3sc4ccccc4[n+]31)[c]1ccc3ccccc3c1-c1sc3ccccc3[n+]12", "assay": "ICP-MS", "conditions": "10 µM, 24 h, 37 °C", "measurement": "cellular iridium uptake", "value": "0.93 ± 0.23 fmol/cell"}
{"SMILES": "COc1cc(/C=C/C=C2\\SC(=S)NC2=O)ccc1O", "assay": "CellTiter-Glo", "conditions": "1.25 µM, 24 h, unit not given", "scale": "relative to: untreated", "measurement": "viability", "value": "1.02 and 0.984"}
{"SMILES": "COc1ccc(CCNC2=CC3=[N+](C)CCc4c[nH]c(c43)C2=O)cc1", "assay": "cell growth or viability, MTT", "conditions": "72 h", "measurement": "CC50", "value": "0.2 µM"}
{"SMILES": "CC(C)C[C@H](NC(=O)[C@@H](NC(=O)[C@H](Cc1ccccc1)NC(=O)c1ccc(CN2CCOCC2)cc1)C1CCC1)C(=O)N[C@@H](CCCCN(C)C1CC2CCC1C2)C(=O)N[C@@H](CO)C(=O)NCCOCCOCCCCCCCl (some centres unmarked)", "assay": "cell penetration, chloroalkane penetration", "conditions": "4 h, chloroalkane-tagged compound", "measurement": "CP50", "value": "6.9 ± 0.7 µM"}
{"SMILES": "COc1ccc2nccc(CC[C@H]3OC[C@H](NC(=O)c4ccc(Cl)cc4)CO3)c2c1", "assay": "cytotoxicity", "conditions": "24 h", "measurement": "IC50", "value": "17.7 µg/mL"}
{"SMILES": "CCN(CCCC[C@H](NC(=O)[C@H](CCCN)NC(=O)[C@@H](NC(=O)[C@H](Cc1ccccc1)NC(=O)c1ccc(C(C)(C)C)cc1)C1CCC1)C(=O)N[C@@H](CO)C(=O)NCCOCCOCCCCCCCl)C1CC2CCC1C2 (some centres unmarked)", "assay": "cell penetration, chloroalkane penetration", "conditions": "4 h, chloroalkane-tagged compound", "measurement": "CP50", "value": "13 ± 2.6 µM"}
{"SMILES": "CCC(=CCc1c(O)cc2c(c1O)C(=O)CC(c1c(O)cccc1OC)O2)CC (centres unmarked)", "assay": "cytotoxicity, MTT", "conditions": "48 h, with: S9 fraction", "measurement": "log IC50", "value": "> 2 log µM"}
{"SMILES": "N=C(N)NCc1cccc(CNC(=O)c2cc(-c3ccccc3)n(-c3ccccc3)n2)c1", "assay": "cell growth or viability", "measurement": "CC50", "value": "> 50 µM"}
{"SMILES": "CCC(=CCc1c(O)cc2c(c1O)C(=O)CC(c1cccc(OC)c1O)O2)CC (centres unmarked)", "assay": "cytotoxicity, MTT", "conditions": "48 h, with: S9 fraction", "measurement": "log IC50", "value": "1.32 log µM"}
{"SMILES": "N=C(N)NCc1cccc(NC(=O)c2cc(-c3ccccc3)n(-c3ccccc3)n2)c1", "assay": "cell growth or viability", "measurement": "CC50", "value": "37 µM"}
{"SMILES": "COc1ccc2ncc(F)c(C(O)C[C@H]3OC[C@H](NCc4ccc(Cl)c(Cl)c4)CO3)c2n1 (some centres unmarked)", "assay": "cytotoxicity", "conditions": "24 h", "measurement": "IC50", "value": "> 128 µg/mL"}
{"SMILES": "S=c1n(-c2ccccc2)c2c3ccccc3nc3[n+]2[n]1[Ir-3]12([S]3)([c]3ccccc3-c3sc4ccccc4[n+]31)[c]1ccccc1-c1sc3ccccc3[n+]12", "assay": "ICP-MS", "conditions": "10 µM, 24 h, 37 °C", "measurement": "cellular iridium uptake", "value": "3.4 ± 0.11 fmol/cell"}
{"SMILES": "COc1ccc2ncc(F)c(CC[C@@]3(O)CO[C@@H]4[C@@H](NCc5ccc(Cl)c(Cl)c5)CO[C@@H]43)c2n1", "assay": "cytotoxicity", "conditions": "24 h", "measurement": "IC50", "value": "30 µg/mL"}
{"SMILES": "CCOC(=O)c1cnc(NCc2cccc(NC(=O)c3cc(-c4ccccc4)n(-c4ccccc4)n3)c2)nc1", "assay": "cell growth or viability", "measurement": "CC50", "value": "> 50 µM"}
{"SMILES": "COc1ccc2nccc(CC[C@H]3OC[C@H](NC(=O)c4ccc(Cl)c(Cl)c4)CO3)c2c1", "assay": "cytotoxicity", "conditions": "24 h", "measurement": "IC50", "value": "64.7 µg/mL"}
{"SMILES": "COc1ccc(S(=O)(=O)N(C)c2cc(OC)c(OC)cc2NC(C)=O)cc1", "assay": "cell growth or viability, XTT", "conditions": "72 h", "measurement": "IC50", "value": "51 µM"}
{"SMILES": "COc1ccc2ncc(F)c(CC[C@@]3(O)CO[C@@H]4[C@@H](NCc5ccc(C)cc5)CO[C@@H]43)c2n1", "assay": "cytotoxicity", "conditions": "24 h", "measurement": "IC50", "value": "37.6 µg/mL"}
{"SMILES": "C=CCc1c(O)cc2c(c1O)C(=O)CC(c1ccc(O)cc1)O2 (centres unmarked)", "assay": "cytotoxicity, MTT", "conditions": "48 h, with: S9 fraction", "measurement": "log IC50", "value": "> 2 log µM"}
{"SMILES": "COc1ccc(NC(=O)c2cc(-c3ccccc3)n(-c3ccccc3)n2)cc1", "assay": "cell growth or viability", "measurement": "CC50", "value": "> 50 µM"}
{"SMILES": "COc1ccc2ncc(F)c(CC[C@H]3OC[C@H](NCc4ccc(Cl)c(Cl)c4)CO3)c2n1", "assay": "cytotoxicity", "conditions": "24 h", "measurement": "IC50", "value": "53.3 µg/mL"}
{"SMILES": "CCC(=CCc1c(O)cc2c(c1O)C(=O)CC(c1ccc(OC)cc1O)O2)CC (centres unmarked)", "assay": "cytotoxicity, MTT", "conditions": "48 h, with: S9 fraction", "measurement": "log IC50", "value": "1.2 log µM"}
{"SMILES": "Cc1nc(-c2ccncc2)sc1C(=O)Nc1cccc(C(N)=O)c1", "assay": "cell growth or viability", "measurement": "CC50", "value": "> 50 µM"}
{"note": "For quick reference, copied from above:"}
{"SMILES": "N=C(N)NCc1ccc(CNC(=O)c2cc(-c3ccccc3)n(-c3ccccc3)n2)cc1", "assay": "cell growth or viability", "measurement": "CC50", "value": "> 50 µM"}
{"SMILES": "CCCN(CCCC[C@H](NC(=O)[C@H](CCCN)NC(=O)[C@@H](NC(=O)[C@H](Cc1ccccc1)NC(=O)c1ccc(C(C)(C)C)cc1)C1CCC1)C(=O)N[C@@H](CO)C(=O)NCCOCCOCCCCCCCl)C1CC2CCC1C2 (some centres unmarked)", "assay": "cell penetration, chloroalkane penetration", "conditions": "4 h, chloroalkane-tagged compound", "measurement": "CP50", "value": "14 ± 3.8 µM"}
{"SMILES": "NC(=O)c1cccc(NC(=O)c2cc(-c3ccc(Cl)cc3)n(-c3ccccc3)n2)c1", "assay": "cell growth or viability", "measurement": "CC50", "value": "> 100 µM"}
{"SMILES": "CN(CCCC[C@H](NC(=O)[C@H](CCCN)NC(=O)[C@@H](NC(=O)[C@H](Cc1ccccc1)NC(=O)c1ccc(C(C)(C)C)cc1)C1CCC1)C(=O)N[C@@H](CO)C(=O)NCCOCCOCCCCCCCl)C1CC2CCC1C2 (some centres unmarked)", "assay": "cell penetration, chloroalkane penetration", "conditions": "4 h, chloroalkane-tagged compound", "measurement": "CP50", "value": "15 ± 1.9 µM"}
{"SMILES": "NC[C@H]1O[C@H](O[C@H]2[C@H](O)[C@@H](O[C@H]3O[C@H](Cn4cc(CNC(=S)Nc5ccc6c(c5)C(=O)OC65c6ccc(O)cc6Oc6cc(O)ccc65)nn4)[C@@H](O)[C@H](N)[C@H]3O)[C@H](N)C[C@@H]2N)[C@H](O)[C@@H](O)[C@@H]1O", "conditions": "5 µM, 24 h", "measurement": "cytotoxicity", "value": "2 ± 0.3%"}
{"SMILES": "N#Cc1cc(NC(=O)c2cc(-c3ccccc3)n(-c3ccccc3)n2)ccc1N1CCCC1", "assay": "cell growth or viability", "measurement": "CC50", "value": "> 50 µM"}
